{"data": "Assay results of several laboratories", "note": "Every numbered part comes from another study and shows a few of its results, in no order. Several values in a cell are separate wells, animals, samples, runs or records.", "UniProt Q12851, sequence (whole entry, looked up)": "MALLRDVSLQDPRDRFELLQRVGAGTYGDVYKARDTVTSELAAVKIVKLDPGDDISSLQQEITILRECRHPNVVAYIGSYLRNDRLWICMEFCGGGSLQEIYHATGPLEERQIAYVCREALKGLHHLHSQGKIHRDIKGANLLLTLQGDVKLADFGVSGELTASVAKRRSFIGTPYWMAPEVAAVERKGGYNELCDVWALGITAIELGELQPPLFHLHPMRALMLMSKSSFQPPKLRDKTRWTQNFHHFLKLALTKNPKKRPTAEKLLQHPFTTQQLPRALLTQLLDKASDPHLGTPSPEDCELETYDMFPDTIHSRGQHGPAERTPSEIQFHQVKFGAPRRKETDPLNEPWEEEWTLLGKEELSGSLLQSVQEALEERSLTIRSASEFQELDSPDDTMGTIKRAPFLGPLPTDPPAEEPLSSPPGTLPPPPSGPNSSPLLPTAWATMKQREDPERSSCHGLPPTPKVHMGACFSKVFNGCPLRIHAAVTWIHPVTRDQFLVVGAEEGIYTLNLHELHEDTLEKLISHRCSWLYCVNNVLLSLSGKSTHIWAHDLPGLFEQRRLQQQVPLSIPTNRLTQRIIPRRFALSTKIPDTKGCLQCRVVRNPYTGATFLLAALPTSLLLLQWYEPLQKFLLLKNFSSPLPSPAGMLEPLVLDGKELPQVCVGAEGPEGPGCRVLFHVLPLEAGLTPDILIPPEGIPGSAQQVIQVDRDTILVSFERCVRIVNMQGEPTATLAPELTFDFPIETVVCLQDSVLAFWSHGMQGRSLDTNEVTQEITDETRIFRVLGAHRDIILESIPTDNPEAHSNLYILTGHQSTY", "UniProt Q9NWZ3, sequence (whole entry, looked up)": "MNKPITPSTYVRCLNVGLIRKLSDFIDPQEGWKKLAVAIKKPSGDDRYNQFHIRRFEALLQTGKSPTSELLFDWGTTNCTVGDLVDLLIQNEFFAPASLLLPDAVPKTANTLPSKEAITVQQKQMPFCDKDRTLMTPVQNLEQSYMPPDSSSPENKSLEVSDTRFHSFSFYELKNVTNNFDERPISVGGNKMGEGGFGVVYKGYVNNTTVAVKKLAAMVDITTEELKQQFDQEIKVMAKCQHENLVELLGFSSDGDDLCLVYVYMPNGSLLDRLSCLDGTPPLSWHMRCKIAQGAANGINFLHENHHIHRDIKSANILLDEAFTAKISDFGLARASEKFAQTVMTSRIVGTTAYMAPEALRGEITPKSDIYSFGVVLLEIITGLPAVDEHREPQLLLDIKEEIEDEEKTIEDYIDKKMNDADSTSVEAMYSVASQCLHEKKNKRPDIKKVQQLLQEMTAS", "UniProt Q15208, sequence (whole entry, looked up)": "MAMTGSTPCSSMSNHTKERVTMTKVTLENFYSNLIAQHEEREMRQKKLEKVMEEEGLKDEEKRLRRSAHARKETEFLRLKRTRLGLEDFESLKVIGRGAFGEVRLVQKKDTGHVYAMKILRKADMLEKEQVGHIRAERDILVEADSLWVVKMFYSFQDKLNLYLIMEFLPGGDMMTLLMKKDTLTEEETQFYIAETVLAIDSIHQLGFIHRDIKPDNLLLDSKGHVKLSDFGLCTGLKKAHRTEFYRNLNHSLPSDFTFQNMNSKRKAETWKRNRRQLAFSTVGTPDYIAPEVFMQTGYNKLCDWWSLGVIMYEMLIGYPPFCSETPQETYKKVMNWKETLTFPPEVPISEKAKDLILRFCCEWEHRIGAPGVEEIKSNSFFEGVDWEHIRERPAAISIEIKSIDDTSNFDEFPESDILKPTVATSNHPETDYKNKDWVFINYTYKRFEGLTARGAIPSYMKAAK", "UniProt P10721, sequence (whole entry, looked up)": "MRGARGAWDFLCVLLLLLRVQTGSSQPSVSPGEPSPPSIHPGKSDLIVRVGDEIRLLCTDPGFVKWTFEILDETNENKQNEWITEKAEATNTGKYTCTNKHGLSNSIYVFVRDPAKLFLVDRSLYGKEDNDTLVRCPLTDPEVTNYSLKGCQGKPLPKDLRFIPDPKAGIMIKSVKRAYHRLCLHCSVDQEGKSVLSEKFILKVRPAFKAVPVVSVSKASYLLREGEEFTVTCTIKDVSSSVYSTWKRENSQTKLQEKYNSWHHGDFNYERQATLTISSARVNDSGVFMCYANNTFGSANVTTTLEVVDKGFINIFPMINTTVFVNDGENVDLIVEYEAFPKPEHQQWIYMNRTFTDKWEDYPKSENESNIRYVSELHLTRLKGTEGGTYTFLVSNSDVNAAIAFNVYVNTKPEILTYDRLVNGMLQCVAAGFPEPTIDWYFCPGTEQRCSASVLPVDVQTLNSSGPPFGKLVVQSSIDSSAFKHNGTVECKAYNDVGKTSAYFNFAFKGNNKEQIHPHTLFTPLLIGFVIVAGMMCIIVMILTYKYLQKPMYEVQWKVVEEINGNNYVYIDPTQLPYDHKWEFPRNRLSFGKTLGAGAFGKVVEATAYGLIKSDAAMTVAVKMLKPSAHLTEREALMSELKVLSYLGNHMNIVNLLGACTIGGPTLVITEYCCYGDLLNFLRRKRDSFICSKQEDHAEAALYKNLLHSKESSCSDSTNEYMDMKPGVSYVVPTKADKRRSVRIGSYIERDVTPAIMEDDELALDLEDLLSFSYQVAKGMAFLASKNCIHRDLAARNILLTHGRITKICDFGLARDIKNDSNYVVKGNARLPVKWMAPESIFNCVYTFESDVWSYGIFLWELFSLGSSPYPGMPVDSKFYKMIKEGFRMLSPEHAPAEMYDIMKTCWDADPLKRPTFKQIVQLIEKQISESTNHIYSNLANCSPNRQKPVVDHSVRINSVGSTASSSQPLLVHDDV", "UniProt Q7KZI7, sequence (whole entry, looked up)": "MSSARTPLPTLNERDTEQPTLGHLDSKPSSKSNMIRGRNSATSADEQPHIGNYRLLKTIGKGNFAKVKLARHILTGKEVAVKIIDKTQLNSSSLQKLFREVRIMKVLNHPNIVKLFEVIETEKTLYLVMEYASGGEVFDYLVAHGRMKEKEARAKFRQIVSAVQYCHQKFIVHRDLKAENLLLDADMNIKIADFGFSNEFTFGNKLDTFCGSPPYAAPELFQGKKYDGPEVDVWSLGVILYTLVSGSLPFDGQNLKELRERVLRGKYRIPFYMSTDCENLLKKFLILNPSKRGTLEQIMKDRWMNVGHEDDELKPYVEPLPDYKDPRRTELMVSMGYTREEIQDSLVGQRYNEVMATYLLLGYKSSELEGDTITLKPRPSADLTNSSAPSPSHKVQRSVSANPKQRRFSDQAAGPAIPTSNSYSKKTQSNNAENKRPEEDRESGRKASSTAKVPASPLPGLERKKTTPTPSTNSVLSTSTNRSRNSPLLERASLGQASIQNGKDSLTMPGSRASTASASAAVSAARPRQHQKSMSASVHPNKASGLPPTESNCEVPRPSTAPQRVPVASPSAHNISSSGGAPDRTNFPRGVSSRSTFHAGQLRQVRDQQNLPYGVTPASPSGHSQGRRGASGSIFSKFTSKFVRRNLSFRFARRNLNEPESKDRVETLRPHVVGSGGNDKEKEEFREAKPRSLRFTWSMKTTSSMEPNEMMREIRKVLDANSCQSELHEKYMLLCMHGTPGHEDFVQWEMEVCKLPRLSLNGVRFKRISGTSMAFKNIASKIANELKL", "UniProt P48729, sequence (whole entry, looked up)": "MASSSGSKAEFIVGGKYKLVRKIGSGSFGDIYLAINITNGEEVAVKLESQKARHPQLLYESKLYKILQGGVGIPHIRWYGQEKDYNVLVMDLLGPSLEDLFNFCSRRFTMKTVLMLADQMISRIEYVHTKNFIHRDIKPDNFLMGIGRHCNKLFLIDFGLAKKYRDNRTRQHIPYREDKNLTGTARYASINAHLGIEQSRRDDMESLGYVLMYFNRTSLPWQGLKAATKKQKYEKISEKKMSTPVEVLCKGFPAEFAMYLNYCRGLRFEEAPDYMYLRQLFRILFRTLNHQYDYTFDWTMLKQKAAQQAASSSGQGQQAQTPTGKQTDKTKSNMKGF", "UniProt Q9NYY3, sequence (whole entry, looked up)": "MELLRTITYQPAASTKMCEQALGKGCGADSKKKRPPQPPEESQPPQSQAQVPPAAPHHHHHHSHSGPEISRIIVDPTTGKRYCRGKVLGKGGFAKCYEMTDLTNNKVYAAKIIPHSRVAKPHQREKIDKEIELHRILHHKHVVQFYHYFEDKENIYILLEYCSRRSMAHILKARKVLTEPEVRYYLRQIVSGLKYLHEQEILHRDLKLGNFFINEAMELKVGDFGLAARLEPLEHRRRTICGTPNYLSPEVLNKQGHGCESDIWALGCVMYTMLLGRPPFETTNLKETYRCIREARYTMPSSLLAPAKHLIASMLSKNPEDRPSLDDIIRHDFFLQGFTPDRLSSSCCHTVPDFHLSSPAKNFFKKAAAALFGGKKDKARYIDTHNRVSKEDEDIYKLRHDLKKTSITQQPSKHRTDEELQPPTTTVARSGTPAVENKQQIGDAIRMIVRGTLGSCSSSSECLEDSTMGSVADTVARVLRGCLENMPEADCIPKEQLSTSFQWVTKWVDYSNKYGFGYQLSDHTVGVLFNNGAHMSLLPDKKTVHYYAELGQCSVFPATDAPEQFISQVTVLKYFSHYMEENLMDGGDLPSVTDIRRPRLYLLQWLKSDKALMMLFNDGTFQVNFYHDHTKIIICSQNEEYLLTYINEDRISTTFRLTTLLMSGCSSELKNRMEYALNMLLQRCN", "UniProt O14757, sequence (whole entry, looked up)": "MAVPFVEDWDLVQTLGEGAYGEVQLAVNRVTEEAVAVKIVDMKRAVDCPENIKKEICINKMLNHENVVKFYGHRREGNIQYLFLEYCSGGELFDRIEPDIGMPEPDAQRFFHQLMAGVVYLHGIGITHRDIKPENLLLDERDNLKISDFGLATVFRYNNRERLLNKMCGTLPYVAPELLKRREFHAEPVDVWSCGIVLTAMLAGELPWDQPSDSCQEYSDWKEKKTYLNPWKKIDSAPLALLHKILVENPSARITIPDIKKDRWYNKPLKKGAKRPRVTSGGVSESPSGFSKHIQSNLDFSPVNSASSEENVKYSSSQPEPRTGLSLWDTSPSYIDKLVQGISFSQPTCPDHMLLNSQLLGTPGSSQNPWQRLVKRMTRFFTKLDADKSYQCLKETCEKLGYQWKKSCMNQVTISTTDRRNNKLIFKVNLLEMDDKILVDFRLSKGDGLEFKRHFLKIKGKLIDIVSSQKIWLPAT"}
{"data": "Series 1", "SMILES": "CSc1nc(-c2ccnc(N[C@@H](C)c3ccccc3)c2)c(-c2ccc(F)cc2)[nH]1 (racemic)", "read-out": "enzyme activity", "mode": "inhibitor", "concentration": "0.5 µM", "relative to": "control"}
{"target": "STK38 (Homo sapiens, UniProt Q15208)", "remaining activity": "104%"}
{"target": "IRAK4 (Homo sapiens, UniProt Q9NWZ3)", "remaining activity": "82.6%"}
{"target": "Cyclin-dependent kinase 9, with cyclin T1 (CDK9, Homo sapiens, UniProt P50750)", "remaining activity": "99.1%"}
{"target": "KIT (Homo sapiens, UniProt P10721)", "remaining activity": "92.4%"}
{"target": "PRKCI (Homo sapiens, UniProt P41743)", "remaining activity": "91.9%"}
{"target": "PRKCD (Homo sapiens, UniProt Q05655)", "remaining activity": "89.1%"}
{"target": "CSNK1A1 (Homo sapiens, UniProt P48729)", "remaining activity": "82.6%"}
{"target": "MKNK2 (Homo sapiens, UniProt Q9HBH9)", "remaining activity": "105%"}
{"target": "MAP4K2 (Homo sapiens, UniProt Q12851)", "remaining activity": "82.5%"}
{"target": "PLK2 (Homo sapiens, UniProt Q9NYY3)", "remaining activity": "94.3%"}
{"target": "CHEK1 (Homo sapiens, UniProt O14757)", "remaining activity": "101%"}
{"data": "Series 2", "target": "RNA binding protein fox-1 homolog 2, RRM domain, GST-SBP tag (RBFOX2, Homo sapiens, UniProt O43251-10, residues 100-194)", "method": "RNA Bind-n-Seq", "form": "RNA", "matrix": "in vitro", "concentration": "365 nM", "notes": "natural RNA segment, single round, ends assumed", "relative to": "no-protein control", "reading": "higher = stronger binding", "shared flanks, not repeated": "GGGAGUUCUACAGUCCGACGAUC … UGGAAUUCUCGGGUGCCAA", "Construct (chain)": "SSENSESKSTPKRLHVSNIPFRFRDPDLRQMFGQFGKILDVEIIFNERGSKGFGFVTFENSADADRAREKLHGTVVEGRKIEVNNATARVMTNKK"}
{"Sequence": "CCAAACUCUCUUUCCCCAUUUCUAUCUCCCAGCCCAGUCACAAAAAUACUCAGCUCCAUCAAGAGGAAUUGUGUCUAAGAGGAUACCCCUGUUAAUCUCCUUUUUUCUUG", "RBNS enrichment (R)": 0.924}
{"Sequence": "GCUCCUGCGUGCAUCCCCGGGAUGACCAGACUCCCGGACUCCUCAGGCAGUGCCCUUUCCUCCCACUUUUCCUCCCCCAUAGCCACAGGCCUCUGCUCCUGCUCCUGCCU", "RBNS enrichment (R)": 0.89}
{"Sequence": "GGUAGCUGCUUGUGCAGGUCCUGUGCCCAUGGCUUGCUGUGGAGGAGUGUGGCUGAUGGCCUGGGAGGUGGGUUUUCCAUAAUCAUUUCCAUUUGCUAGUUCUCAUGUGA", "RBNS enrichment (R)": 0.47}
{"Sequence": "ACUAGCCUAAACAUUCUCAAAUGUUUGAGAUUCAAGUGAAUGGAAGGAAAACCACAUGCCUUUAAAACUAAACUGUAAUAAUUACCUGGCUAAUUUCAGCUAAGCCUUCA", "RBNS enrichment (R)": 0.524}
{"Sequence": "UCAACUGUGCAAAAAACAAAAGAUGGAGUGUUUACAAGUAGACAUUCGUCAUCAGUUGUUCUUGAACAUGGUCUUUUAAAAACUAGUCAGAUGAAUUGUUUUCAUCUGAA", "RBNS enrichment (R)": 0.267}
{"Sequence": "CAUCUCCCUAGCUUUCUCACGCUAACCCUGAAGUAUGAUCACUUCUGAACCUGCUCCUUUCUUAACUGCCAGGAUUGGAAGCAAGAGCAUCAAGCCCAUAGGAUGACUGC", "RBNS enrichment (R)": 0.415}
{"Sequence": "ACAGCCCUCUUUUCUCCUGAAUUUUUAAUGCAGAAGUUUGAAUGAAGCAAGGGAAGGCAUGUAGGGACAGGAAAGGAAACAAUGGAAGGAAAGUGAUUCUGUGAAAAGGA", "RBNS enrichment (R)": 4.02}
{"Sequence": "AAGCACAUGCCUGUUUACGAUUAACACUAAAGUUUUAAUAUAUAAGUAUUUGAAGUCUGUUCAACUUAGUUUUACGCUAGUGUUCUGACAUAUUUUAAUUGCAUAUAACU", "RBNS enrichment (R)": 0.567}
{"data": "Series 3", "Structure (SMILES)": "O=C(O)c1cc(-c2ccc(C3CCNCC3)cc2)c2ccc(-c3ccc(C(F)(F)F)cc3)cc2c1", "read-out": "cell-free assay", "method": "competition with immobilised ligand", "concentration": "1 µM"}
{"target": "EPHB4 (Homo sapiens, UniProt P54760)", "remaining binding": "100%"}
{"target": "PAK6 (Homo sapiens, UniProt Q9NQU5)", "remaining binding": "100%"}
{"target": "MARK2 (Homo sapiens, UniProt Q7KZI7)", "remaining binding": "100%"}
{"data": "Single results of other studies"}
{"Compound": "CC[C@@H](C)c1nc2cc(Nc3ccnc4ccc(S(=O)(=O)C(C)C)cc34)ccc2s1", "cell line": "L929 RIPK3 knockout", "test": "cell viability", "setting": "without zVAD, 10% FBS", "measurement": "CC50", "result": "52.6 µM"}
{"Compound": "CC(=O)OCC[N+](C)(C)C", "cell line": "A-375", "setting": "100 µM, 60 h", "measurement": "viability", "result": "107%"}
{"Compound": "O=C1CCC(N2Cc3cc(C4CCN(Cc5ccccc5)CC4)ccc3C2=O)C(=O)N1 (stereo not shown)", "cell line": "Jurkat", "setting": "1000 nM, 24 h, together with: CD3/CD28 beads 1:4", "measurement": "IL-2 level", "result": "172 pg/mL and 190 pg/mL and 194 pg/mL"}
{"note": "Repeated from above (series 1):"}
{"target": "STK38 (Homo sapiens, UniProt Q15208)", "remaining activity": "104%"}
{"target": "IRAK4 (Homo sapiens, UniProt Q9NWZ3)", "remaining activity": "82.6%"}
{"target": "Cyclin-dependent kinase 9, with cyclin T1 (CDK9, Homo sapiens, UniProt P50750)", "remaining activity": "99.1%"}
